Experimental data collected from several papers.
Numbered parts are unrelated; each lists some results of a single study.

Set 1
Target: RING finger protein unkempt homolog, zinc fingers 1-6, GST-SBP tag (UNK, Homo sapiens, UniProt Q9C0B0, residues 30-357)
UniProt Q9C0B0, sequence (30-357, looked up): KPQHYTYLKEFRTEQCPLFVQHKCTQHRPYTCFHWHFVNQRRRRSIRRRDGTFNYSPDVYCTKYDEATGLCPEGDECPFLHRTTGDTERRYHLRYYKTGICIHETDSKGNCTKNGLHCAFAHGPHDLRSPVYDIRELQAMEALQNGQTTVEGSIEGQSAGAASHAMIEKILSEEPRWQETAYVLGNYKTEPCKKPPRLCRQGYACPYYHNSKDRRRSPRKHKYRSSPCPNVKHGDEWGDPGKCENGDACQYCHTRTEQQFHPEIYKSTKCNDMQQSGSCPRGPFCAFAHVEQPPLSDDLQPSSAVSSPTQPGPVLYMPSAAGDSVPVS
Technique: RNA Bind-n-Seq
Form: RNA
Sample: in vitro
Concentration: not given
Setting: RNA with constant flanks, human-mouse chimeric sites, ends assumed
Relative to: input RNA pool
Direction: higher = stronger binding
Quantity: bound/input enrichment
GGGAGUUCUACAGUCCGACGAUCGUGACUGACAUUAAAAUUUCCCCUCAGCAAAGAAGUGCAGUAGUCACCAUAAUUCCAUCUGUGGUGAAUGCCAAUCAGAUUGUGGAGCUGGUCCCAGACCUCAGUUUAGACAUGGGAACUCAACAGAGGAUUGAGCAUCA: 0.309 ratio
GGGAGUUCUACAGUCCGACGAUCCUCGGCACCGGCACGCUUUACAUCGCUGAGAGCCGCCUGUCCUGGUUAGAUGGUUCGGGAUUAGGAUUCUCACUGGAAUACCCCACCAUUAGUUUACAUGCGGUGUCCAGGGACCGAAACCAACAGAGGAUUGAGCAUCA: 0.575 ratio
GGGAGUUCUACAGUCCGACGAUCUACAUUUUAUUGUUGAGUUUCAUUUUCAUAUAUUCUUAUGGUGUCUGCUUGCCUGUGACUUCUGGUAAAAUAAAAUAAGCCUUUGAAAAUAUUUUAGCAUGGUAUUUAACAUUUUCUAAACAACAGAGGAUUGAGCAUCA: 1.38 ratio

Set 2
Target: Interferon regulatory factor 3, full length, phosphomimetic (IRF3, Homo sapiens, UniProt Q14653, residues 1-427, S386D/S396D/S398D/S402D/T404D/S405D)
Technique: protein-binding microarray
Form: double-stranded DNA, one strand shown
Sample: in vitro
Concentration: 2540 nM top
Setting: 60-bp whole probe
Together with: salmon DNA 0.4 mg/ml
Relative to: random background probes
Direction: higher = stronger binding
Quantity: fitted relative affinity
Construct (chain): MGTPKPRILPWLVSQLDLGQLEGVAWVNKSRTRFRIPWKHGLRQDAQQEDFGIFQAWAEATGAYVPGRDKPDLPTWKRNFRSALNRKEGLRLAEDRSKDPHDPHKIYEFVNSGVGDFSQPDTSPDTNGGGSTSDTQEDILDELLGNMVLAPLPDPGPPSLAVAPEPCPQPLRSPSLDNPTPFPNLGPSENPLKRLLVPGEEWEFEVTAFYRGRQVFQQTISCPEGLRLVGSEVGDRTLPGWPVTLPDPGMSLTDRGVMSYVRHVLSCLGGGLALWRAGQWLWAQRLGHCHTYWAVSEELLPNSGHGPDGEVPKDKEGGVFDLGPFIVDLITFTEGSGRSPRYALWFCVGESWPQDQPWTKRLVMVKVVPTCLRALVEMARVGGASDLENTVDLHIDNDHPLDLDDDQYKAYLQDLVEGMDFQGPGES
GCCTAGCACTTAGGTTTCCTGTCCCTTTAGTGCTAGGTCTTGATTCGCTTGACGCTGCTG: 3.27 z-score
GCCTAGCACTTAGGTATCGGGTTTCCGTTAGTGCTAGTCTTGATTCGCTTGACGCTGCTG: 3.16 z-score
GCCTAGCACTTAGGACTGGGGATTCGGTTAGTGCTAGTCTTGATTCGCTTGACGCTGCTG: -0.406 z-score
GCCTAGCACTCTGGGCCTCCATCATCTGTGTGCTAGGTCTTGATTCGCTTGACGCTGCTG: -1.29 z-score

Set 3
Target: Histone acetyltransferase KAT6A, winged helix 1, GST fusion (KAT6A, Homo sapiens, UniProt Q92794, residues 1-85)
Technique: protein binding microarray
Form: double-stranded DNA, one strand shown
Sample: in vitro
Concentration: not given
Setting: 8-mer, flanks averaged, mean of 2 arrays, mostly near background
Relative to: not given
Direction: higher = stronger binding
Quantity: E-score
Residues (chain): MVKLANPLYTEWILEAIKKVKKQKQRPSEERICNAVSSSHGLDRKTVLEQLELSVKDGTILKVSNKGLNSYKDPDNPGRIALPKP
AGGTATCG: 0.0675
CCGATCAG: 0.149
CTGGGTCA: -0.195
TGTGGCAA: -0.0429
AACATTGG: -0.275

Mixed results
PhoQ, residues 284 288 289 292 302 303 GNNTDL  fold induction (PhoP, residues 12 14 15 18 19 VQGLL (Escherichia coli, UniProt P23836); Sort-seq, measured: YFP reporter; E. coli; PhoQ-PhoP variant library, together with: 10 µM Mg2+; relative to: high Mg2+ state, higher = stronger signaling): 0.994

Repeated from above (set 3):
TGTGGCAA: -0.0429
AACATTGG: -0.275
